Results from different studies.
Lines come from different studies, so protocols differ. ± marks the error that the study gave.
Cell line: A549

SMILES | assay | setting | scale | endpoint | result
C[C@H]1CN(C(=O)c2cn(-c3ccnc(N)n3)c3cc(C#CC4(O)CCCCC4)ccc23)CCN1 | wound-healing | 5 µM |  | cell migration | 32%
COc1cc(C(=O)c2[nH]c(N)nc2-c2cccs2)cc(OC)c1OC | cell migration | 0.2 µM, 10 h |  | inhibition | 58%
Cc1ccc(C(C)C)cc1.Cc1ncc(CO)c(C=NNC2=Nc3ccccc3-c3[nH]c4ccc(Br)cc4c3C2)c1O.[Cl-].[Cl][Ru+] | DNA synthesis, BrdU incorporation | 5 µM, 24 h |  | inhibition | ~30%
CC/C=C\C/C=C\C/C=C\C/C=C\C/C=C\C/C=C\CCC(=O)Nc1ccn(C2OC(CO)C(O)C2(F)F)c(=O)n1 (stereo not drawn) | NCI-60 screen |  |  | GI50 | 32.6 nM
CN(C)c1cccc2c(S(=O)(=O)NCCCCCC(=O)NO)cccc12 | cell cycle, propidium iodide flow cytometry | 10 µM |  | cells in G1 phase | 82.6%
O=C(CSC(=S)N1CCCCCC1)Nc1cccc2c1C(=O)c1ccccc1C2=O | phospho-flow cytometry | 25 µM, high serum | relative to: vehicle | phosphotyrosine level | ~2 fold decrease
C=C1CC[C@@H]2[C@](C)(CO)[C@H](O)CC[C@@]2(C)[C@@H]1/C=C/C1=CCOC1=O | cell growth or viability, MTT | 20 µM, 48 h |  | inhibition | 34.3%
COc1ccc([C@@H]2CC(=O)c3c(O)cc(O[C@@H]4O[C@H](CO[C@@H]5O[C@@H](C)[C@H](O)[C@@H](O)[C@H]5O)[C@@H](O[C@H]5O[C@H](CO)[C@@H](O)[C@H](O)[C@H]5O)[C@H](O)[C@H]4O)cc3O2)cc1O | cell migration, scratch | 100 µg/mL, 0 h |  | gap closure | 0%
CCCC1OC2CC3C4CCC5=CC(=O)C=CC5(C)C4C(O)CC3(C)C2(C(=O)COC(=O)CN(C)C)O1 (stereo not drawn) | IL-6 release, inhibitor, ELISA | 1 nM, 24 h, LPS-stimulated |  | inhibition | > 50%
Cc1cc(-c2ccccc2)c2ccc3c(-c4ccccc4)cc(C)nc3c2n1.[Cl-].[Cl-].[Ru+2].c1ccc(-c2ccccn2)nc1.c1ccc(-c2ccccn2)nc1 | LC-MS/MS | 3 µM, end of incubation |  | cellular uptake | 0.6 nmol/10⁶ cells
Cc1ccc(C(C)C)cc1.O=C([N-]c1nc2ccccc2s1)c1cnccn1.[Cl-].[Ru+2] | cytotoxicity, MTT |  | relative to: KMST-6 over A549 | selectivity index | > 2
CC1=CC[C@]2(C(=O)O[C@H]3OC[C@@H](O)[C@@H](O)[C@@H]3OS(=O)(=O)O)CC[C@]3(C)C(CCC4[C@@]5(C)CC[C@H](O)C(C)(C)C5CC[C@]43C)C2[C@H]1C (stereo partly drawn) | annexin V/PI flow cytometry | 2.34 µM, 48 h |  | apoptotic cells | 21.5%
FC(F)(F)c1ccnc(-c2cc(C(F)(F)F)ccn2)c1.FC(F)(F)c1ccnc(-c2cc(C(F)(F)F)ccn2)c1.[Cl-].[Cl-].[Ru+2].c1cnc2c(c1)ccc1cccnc12 | cell growth or viability, resazurin | dark |  | EC50 | > 300000 nM
[Cl-].[Cl-].[Ru+2].c1ccc(-c2ccccn2)nc1.c1ccc(-c2ccccn2)nc1.c1ccc(-c2ccccn2)nc1 | oxygen consumption rate, Seahorse extracellular flux | 1 h, dark |  | lowest concentration inhibiting OCR | > 25 µM
COc1ccc([C@@H]2CC(=O)c3c(O)cc(O[C@@H]4O[C@H](CO[C@@H]5O[C@@H](C)[C@H](O)[C@@H](O)[C@H]5O)[C@@H](O)[C@H](O)[C@H]4O)cc3O2)cc1O | cell migration, scratch | 150 µg/mL, 48 h |  | gap closure | 5.16 ± 0.79%
N=C(N)NCCC[C@@H]1NC(=O)[C@H](CCCCN)NC(=O)[C@@H](Cc2ccc(O)cc2)NC(=O)[C@H](CC(=O)O)NC(=O)CNC1=O | MTT | 48 h |  | total growth inhibition | > 100 µM
CCNc1cc2c(cc1C)C1(c3cc(C)c(NCC)cc3O2)c2ccccc2C(=O)N1N=Cc1c[c-]c(-c2ccccn2)cc1.Cc1c(C)c(-c2ccc(-c3ccccc3)cc2)[c-](C)c1C.[Cl-].[Ir+3] |  | 2 x IC50, 24 h | relative to: untreated | S phase increase | 8.58%
CC1=CC(C)=[N+]2C1=C(CO)c1c(C)cc(C)n1[B-]2(F)F | resazurin | 0.1667 h, with: 510 nm light, 10 min | relative to: dark over light IC50 | phototoxicity index | 9 ± 3
[Cl-].[Cl-].[Ru+2].c1ccc(-c2ccccn2)nc1.c1ccc(-c2ccccn2)nc1.c1ccc(-c2ccnc3c2ccc2c(-c4ccccc4)ccnc23)cc1 | Seahorse Mito Stress Test | concentration not given, with: 450 nm light 29.1 J/cm2 | relative to: vehicle | maximal respiration reduction | ≥ 90%
CC1=C(Cn2c3ccc(Cl)c(=O)c-3nc3ccccc32)CCC(C)(C)C1 | cytotoxicity, WST-8 |  | relative to: IC50 MRC5 over IC50 A549 | selectivity index | 0.49
CCN1CCC2(CC1)C/C(=N\NC(=O)Nc1ccccc1)c1ccccc1O2 | PI staining, flow cytometry | concentration not given, %S |  | cell cycle distribution | 37.3%
[Cl-].[Cl][Ru-4]123([n+]4ccccc4-c4cc(-c5ccccc5)cc([n+]41)-c1cccc[n+]12)[n+]1ccc(-c2ccccc2)c2ccc4c(-c5ccccc5)cc[n+]3c4c21 |  | 0.5 µM, 24 h |  | cells with NPM1 translocation | 36%
[Cl-].[Cl-].[Ru+2].c1ccc2nc(-c3ccc4ccccc4n3)ccc2c1.c1ccc2nc(-c3ccc4ccccc4n3)ccc2c1.c1cnc2c(c1)ccc1cccnc12 | oxygen consumption rate, Seahorse extracellular flux | 1 h, dark |  | lowest concentration inhibiting OCR | > 10 µM
CC(=O)OCC1(O)C(Nc2cccc(C(C)=O)c2)C(N)C(NC(=O)N(C)C)(C(C)OC(C)=O)C1(C)O (stereo not drawn) | cell growth or viability |  |  | EC50 | 137 nM
Nc1cccc[n+]1Cc1cccc(C[n+]2ccccc2N)c1 | flow cytometry | 15 µM, 24 h |  | cell population in SubG0/G1 phase | 5.5%
CC(=O)c1cccc(NC2C(N)C(NC(=O)N(C)C)(C(C)OC(=O)C(C)(C)C)C(C)(O)C2(O)COC(=O)C(C)(C)C)c1 (stereo not drawn) | cell growth or viability |  |  | EC50 | 588 nM
S=c1n(-c2ccccc2)c2c3ccccc3nc3[n+]2[n]1[Ir-3]12([S]3)([c]3ccc4ccccc4c3-c3sc4ccccc4[n+]31)[c]1ccc3ccccc3c1-c1sc3ccccc3[n+]12 |  |  | relative to: IC50 dark over IC50 light | phototoxicity index | > 362
O=c1c2ccccc2oc2cc(OCc3cn(Cc4ccc(Br)cc4)nn3)cc(O)c12 | annexin V/PI flow cytometry | 34 µM, 48 h |  | total apoptotic cells | 24.2%
COc1cc(CNC(=O)C[C@H](C)CCC=C(C)C)ccc1OCc1cn(-c2ccc(Cl)c(Cl)c2)nn1 | DCFDA fluorescence | 5 to 1.5 µM, 48 h |  | intracellular ROS | increased
FC(F)(F)c1ccnc(-c2cc(C(F)(F)F)ccn2)c1.FC(F)(F)c1ccnc(-c2cc(C(F)(F)F)ccn2)c1.[Cl-].[Cl-].[Ru+2].c1csc(-c2ccc(-c3ccc(-c4ccc(-c5nc6c7cccnc7c7ncccc7c6[nH]5)s4)s3)s2)c1 | cell viability | 100 J/cm2 light, normoxia, with: visible light 400-700 nm | relative to: dark over light EC50 | phototherapeutic index | 1500

Repeated from above:
SMILES | assay | setting | scale | endpoint | result
CC/C=C\C/C=C\C/C=C\C/C=C\C/C=C\C/C=C\CCC(=O)Nc1ccn(C2OC(CO)C(O)C2(F)F)c(=O)n1 (stereo not drawn) | NCI-60 screen |  |  | GI50 | 32.6 nM
CN(C)c1cccc2c(S(=O)(=O)NCCCCCC(=O)NO)cccc12 | cell cycle, propidium iodide flow cytometry | 10 µM |  | cells in G1 phase | 82.6%
